# Published values from different studies.
# Each line is one published result; not all experiments were run side by side.
Compound,organism,assay,system,setting,MIC
CC(C)C[C@@H](NC(=O)[C@H](C)NC(=O)CNC(=O)[C@@H](NC=O)C(C)C)C(=O)N[C@@H](C)C(=O)N[C@@H](C(=O)N[C@H](C(=O)N[C@@H](C(=O)N[C@@H](Cc1c[nH]c2ccccc12)C(=O)N[C@H](CC(C)C)C(=O)N[C@@H](Cc1cc2ccccc2[nH]1)C(=O)N[C@H](CC(C)C)C(=O)N[C@@H](Cc1c[nH]c2ccccc12)C(=O)N[C@H](CC(C)C)C(=O)N[C@@H](Cc1c[nH]c2ccccc12)C(=O)NCCO)C(C)C)C(C)C)C(C)C,Streptococcus agalactiae,broth microdilution,JCM 5671,,17 µM
CC1(C)SC2C(NC(=O)C(NC(=O)C3=C(O)CNC3=O)c3ccccc3)C(=O)N2C1C(=O)O (stereo not drawn),Escherichia coli,broth microdilution,"isolate IU, CTX-M-14, TEM-1",together with: clavulanic acid 6 µg/mL,> 200 µg/mL
Cc1c2ccncc2c(C)c2c1[nH]c1ccccc12,Candidozyma auris,inhibitor,277,24 h,128 µg/mL
CC[C@H](C)[C@H](NC(=O)[C@H](CCCCN)NC(=O)[C@H](CCCCN)NC(=O)[C@H](Cc1ccccc1)NC(=O)[C@@H](NC(=O)[C@@H](NC(=O)[C@H](CCCNC(=N)N)NC(=O)[C@H](Cc1ccccc1)NC(=O)[C@@H](NC(=O)[C@H](CCCCN)NC(=O)[C@H](CCCCN)NC(=O)[C@@H](N)CCSC)[C@@H](C)CC)C(C)C)[C@@H](C)CC)C(=O)N[C@@H](CC(C)C)C(=O)N[C@@H](CCCCN)C(=O)N[C@@H](CCCNC(=N)N)C(=O)N[C@@H](CC(C)C)C(=O)N[C@H](C(=O)N[C@H](C(=O)O)C(C)C)[C@@H](C)CC,Staphylococcus aureus,broth microdilution,ATCC 25923,together with: 150 mM NaCl,4 µg/mL
N=C(N)NCCC[C@H](NC(=O)[C@H](Cc1c[nH]c2ccccc12)NC(=O)[C@H](CCCNC(=N)N)NC(=O)[C@H](Cc1c[nH]c2ccccc12)NC(=O)[C@H](Cc1c[nH]c2ccccc12)NC(=O)[C@H](Cc1c[nH]c2ccccc12)NC(=O)[C@H](CCCNC(=N)N)NC(=O)[C@H](Cc1c[nH]c2ccccc12)NC(=O)[C@H](CCCNC(=N)N)NC(=O)CN)C(N)=O,Candida albicans,broth microdilution,"SP3931, RPMI 1640-MOPS","48 h, 30 °C",4 µM
CC[C@H](C)[C@H](NC(=O)[C@H](Cc1ccccc1)NC(=O)[C@@H](NC(=O)[C@H](CO)NC(=O)[C@@H](N)CCCNC(=N)N)[C@@H](C)CC)C(=O)N[C@@H](CCCCN)C(=O)N[C@@H](Cc1ccc(O)cc1)C(=O)N[C@@H](CCCCN)C(=O)N[C@@H](CO)C(=O)N[C@@H](CCCCN)C(=O)N1CCC[C@H]1C(=O)N[C@@H](Cc1ccccc1)C(=O)N[C@@H](CS)C(=O)N[C@@H](CCC(=O)O)C(=O)N[C@@H](CCCCN)C(=O)N[C@@H](CC(C)C)C(=O)N[C@@H](CC(C)C)C(=O)N[C@@H](CO)C(=O)N[C@@H](Cc1c[nH]c2ccccc12)C(=O)N[C@H](C(=O)N[C@@H](CCCCN)C(=O)N[C@@H](CO)C(=O)O)C(C)C,Micrococcus luteus,,NCTC 2665,,12.5 µg/mL
O=C(O)CO/N=c1\cc2n(-c3ccc(Cl)cc3)c3ccccc3nc-2cc1Nc1ccc(Cl)cc1,Neisseria gonorrhoeae,bacterial growth,"1130991, multidrug-resistant",24 h,0.94 µM
CC1NC(=O)C(C(=O)NC(C(=O)NC2C(=O)N3C2SC(C)(C)C3C(=O)O)c2ccccc2)=C1O (stereo not drawn),Escherichia coli,broth microdilution,JW0790-2 fiu deletion mutant,ferric iron uptake gene,100 µg/mL
CC(C)[C@H](NC(=O)[C@H](CCCNC(=N)N)NC(=O)[C@H](Cc1c[nH]c2ccccc12)NC(=O)[C@H](CCCNC(=N)N)NC(=O)[C@H](Cc1c[nH]c2ccccc12)NC(=O)[C@H](Cc1c[nH]c2ccccc12)NC(=O)[C@H](Cc1c[nH]c2ccccc12)NC(=O)[C@H](CCCNC(=N)N)NC(=O)[C@H](Cc1c[nH]c2ccccc12)NC(=O)[C@@H](N)CCCNC(=N)N)C(N)=O,Candida albicans,broth microdilution,"SP3902, RPMI 1640-MOPS","48 h, 30 °C",16 µM
C[C@H](NC(=O)CO/N=c1\cc2n(-c3ccc(Cl)cc3)c3ccccc3nc-2cc1Nc1ccc(Cl)cc1)C(=O)OC(C)(C)C,Neisseria gonorrhoeae,bacterial growth,"700825, streptomycin-resistant",24 h,> 30 µM
CC[C@H](C)[C@H](NC(=O)[C@H](CCCCN)NC(=O)[C@@H](NC(=O)[C@H](Cc1ccc(O)cc1)NC(=O)[C@H](CCCCN)NC(=O)[C@H](CCCCN)NC(=O)CNC(=O)[C@H](CCCCN)NC(=O)[C@@H](NC(=O)[C@H](C)NC(=O)[C@H](CC(C)C)NC(=O)[C@H](Cc1c[nH]c2ccccc12)NC(=O)CNC(=O)[C@@H](NC(=O)[C@H](Cc1ccccc1)NC(=O)[C@H](CCCCN)NC(=O)[C@H](CC(C)C)NC(=O)[C@H](Cc1ccccc1)NC(=O)[C@H](C)NC(=O)CNC(=O)[C@@H](N)CCSC)C(C)C)[C@@H](C)O)C(C)C)C(=O)N[C@@H](C)C(=O)N[C@@H](Cc1c[nH]c2ccccc12)C(=O)N[C@@H](CC(=O)O)C(=O)N[C@@H](Cc1c[nH]cn1)C(=O)N[C@@H](CCCCN)C(=O)NCC(=O)N[C@H](C(=O)N[C@H](C(=O)N[C@@H](CCSC)C(=O)N[C@@H](CCCCN)C(=O)N[C@@H](Cc1c[nH]c2ccccc12)C(=O)N[C@@H](CC(C)C)C(=O)N[C@@H](CC(N)=O)C(=O)N[C@@H](C)C(=O)NCC(=O)N[C@@H](CCC(N)=O)C(=O)N[C@H](C(=O)N[C@@H](Cc1ccccc1)C(=O)N[C@H](C(=O)N[C@@H](Cc1c[nH]c2ccccc12)C(=O)N[C@H](C(=O)N[C@@H](Cc1ccc(O)cc1)C(=O)N[C@@H](CCC(=O)O)C(=O)N[C@@H](CCC(N)=O)C(=O)N[C@H](C(=O)N[C@@H](CCCCN)C(=O)N[C@@H](CCCCN)C(=O)N[C@@H](CC(C)C)C(=O)N[C@@H](Cc1c[nH]c2ccccc12)C(=O)N[C@H](C(=O)O)[C@@H](C)O)[C@@H](C)CC)C(C)C)[C@@H](C)O)[C@@H](C)O)[C@@H](C)CC)[C@@H](C)O,Streptococcus iniae,,ATCC 29178,"37 °C, non-formylated synthetic",7.8 µg/mL
N=C(N)NCCC[C@H](NC(=O)[C@H](Cc1c[nH]c2ccccc12)NC(=O)[C@H](CCCNC(=N)N)NC(=O)[C@H](Cc1c[nH]c2ccccc12)NC(=O)[C@H](Cc1c[nH]c2ccccc12)NC(=O)[C@H](Cc1c[nH]c2ccccc12)NC(=O)[C@H](CCCNC(=N)N)NC(=O)[C@H](Cc1c[nH]c2ccccc12)NC(=O)[C@@H](N)CCCNC(=N)N)C(=O)N[C@@H](Cc1c[nH]c2ccccc12)C(N)=O,Candida albicans,broth microdilution,"CGMCC 2.209, RPMI 1640-MOPS","48 h, 30 °C, together with: MgCl2 1 mM",16 µM
CC(C)(C)OCC1NC(=O)C(C(=O)NC(C(=O)NC2C(=O)N3C2SC(C)(C)C3C(=O)O)c2ccccc2)=C1O (stereo not drawn),Escherichia coli,broth microdilution,"ATCC 35218, low-level TEM-1",together with: clavulanic acid 6 µg/mL,100 µg/mL
CC[C@H](C)[C@H](NC(=O)[C@H](CCCNC(=N)N)NC(=O)[C@H](Cc1c[nH]c2ccccc12)NC(=O)[C@H](CCCNC(=N)N)NC(=O)[C@H](Cc1c[nH]c2ccccc12)NC(=O)[C@H](Cc1c[nH]c2ccccc12)NC(=O)[C@H](Cc1c[nH]c2ccccc12)NC(=O)[C@H](CCCNC(=N)N)NC(=O)[C@H](Cc1c[nH]c2ccccc12)NC(=O)[C@H](CCCNC(=N)N)NC(=O)CN)C(N)=O,Candida albicans,broth microdilution,"CGMCC 2.209, RPMI 1640-MOPS","48 h, 30 °C, together with: CaCl2 2 mM",16 µM
CC1(C)SC2C(NC(=O)C(NC(=O)C3=C(O)C4(CC4)NC3=O)c3ccccc3)C(=O)N2C1C(=O)O (stereo not drawn),Escherichia coli,broth microdilution,JW0790-2 fiu deletion mutant,ferric iron uptake gene,25 µg/mL
CC(C)C[C@H](NC(=O)[C@H](CCCNC(=N)N)NC(=O)[C@H](Cc1c[nH]c2ccccc12)NC(=O)[C@H](CCCNC(=N)N)NC(=O)[C@H](Cc1c[nH]c2ccccc12)NC(=O)[C@H](Cc1c[nH]c2ccccc12)NC(=O)[C@H](Cc1c[nH]c2ccccc12)NC(=O)[C@H](CCCNC(=N)N)NC(=O)[C@H](Cc1c[nH]c2ccccc12)NC(=O)[C@@H](N)CCCNC(=N)N)C(N)=O,Candida albicans,broth microdilution,"CGMCC 2.209, RPMI 1640-MOPS","48 h, 30 °C, together with: NaCl 150 mM",16 µM
C[C@@H](O)[C@H]1C(=O)N2C(C(=O)O)=C(SCCN=CN)C[C@H]12,Klebsiella pneumoniae,,"K4, during ceftazidime-avibactam induction","highest MIC, avibactam 2731/4 mg/L",> 128 µg/mL
CC1(C)SC2C(NC(=O)C(NC(=O)C3=C(O)C4CCCN4C3=O)c3ccccc3)C(=O)N2C1C(=O)O (stereo not drawn),Escherichia coli,broth microdilution,Keio mutant JW2142-1,,25 µg/mL
